Assay results of several laboratories.
“And” joins repeats or separate records; there may be more than shown. Numbers after ± are the reported error.
CYP2A6: Cytochrome P450 2A6 (CYP2A6, Homo sapiens, UniProt P11509)
UniProt P11509, sequence (whole entry, looked up): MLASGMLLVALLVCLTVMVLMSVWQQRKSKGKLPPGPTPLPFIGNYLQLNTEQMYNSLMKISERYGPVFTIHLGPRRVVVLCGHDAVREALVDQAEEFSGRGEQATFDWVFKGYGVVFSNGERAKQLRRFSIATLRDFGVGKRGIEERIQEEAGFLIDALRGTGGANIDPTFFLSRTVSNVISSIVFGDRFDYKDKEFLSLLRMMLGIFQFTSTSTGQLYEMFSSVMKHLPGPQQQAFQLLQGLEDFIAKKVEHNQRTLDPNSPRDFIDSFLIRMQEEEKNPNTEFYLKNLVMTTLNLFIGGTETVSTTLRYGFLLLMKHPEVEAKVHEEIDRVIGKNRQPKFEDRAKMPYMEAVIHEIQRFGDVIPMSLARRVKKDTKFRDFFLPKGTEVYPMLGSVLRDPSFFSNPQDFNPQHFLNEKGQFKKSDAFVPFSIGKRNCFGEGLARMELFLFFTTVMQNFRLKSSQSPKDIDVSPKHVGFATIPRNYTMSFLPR
Cyclic nucleotide-gated potassium channel: Cyclic nucleotide-gated potassium channel (Spirochaeta thermophila, UniProt G0GA88)
MTAP: S-methyl-5'-thioadenosine phosphorylase (MTAP, Homo sapiens, UniProt Q13126)
UniProt Q13126, sequence (whole entry, looked up): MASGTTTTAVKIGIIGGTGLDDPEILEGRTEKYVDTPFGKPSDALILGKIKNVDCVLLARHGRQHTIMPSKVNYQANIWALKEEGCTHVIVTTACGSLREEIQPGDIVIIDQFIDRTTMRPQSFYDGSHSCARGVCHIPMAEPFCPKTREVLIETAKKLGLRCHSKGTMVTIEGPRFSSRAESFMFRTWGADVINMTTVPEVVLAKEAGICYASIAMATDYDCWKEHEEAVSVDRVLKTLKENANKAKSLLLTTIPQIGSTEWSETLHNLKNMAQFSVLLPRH
Abl1 SH2 domain: Tyrosine-protein kinase ABL1, SH2 domain (Abl1, Mus musculus, UniProt P00520)
UniProt P00520, sequence (whole entry, looked up): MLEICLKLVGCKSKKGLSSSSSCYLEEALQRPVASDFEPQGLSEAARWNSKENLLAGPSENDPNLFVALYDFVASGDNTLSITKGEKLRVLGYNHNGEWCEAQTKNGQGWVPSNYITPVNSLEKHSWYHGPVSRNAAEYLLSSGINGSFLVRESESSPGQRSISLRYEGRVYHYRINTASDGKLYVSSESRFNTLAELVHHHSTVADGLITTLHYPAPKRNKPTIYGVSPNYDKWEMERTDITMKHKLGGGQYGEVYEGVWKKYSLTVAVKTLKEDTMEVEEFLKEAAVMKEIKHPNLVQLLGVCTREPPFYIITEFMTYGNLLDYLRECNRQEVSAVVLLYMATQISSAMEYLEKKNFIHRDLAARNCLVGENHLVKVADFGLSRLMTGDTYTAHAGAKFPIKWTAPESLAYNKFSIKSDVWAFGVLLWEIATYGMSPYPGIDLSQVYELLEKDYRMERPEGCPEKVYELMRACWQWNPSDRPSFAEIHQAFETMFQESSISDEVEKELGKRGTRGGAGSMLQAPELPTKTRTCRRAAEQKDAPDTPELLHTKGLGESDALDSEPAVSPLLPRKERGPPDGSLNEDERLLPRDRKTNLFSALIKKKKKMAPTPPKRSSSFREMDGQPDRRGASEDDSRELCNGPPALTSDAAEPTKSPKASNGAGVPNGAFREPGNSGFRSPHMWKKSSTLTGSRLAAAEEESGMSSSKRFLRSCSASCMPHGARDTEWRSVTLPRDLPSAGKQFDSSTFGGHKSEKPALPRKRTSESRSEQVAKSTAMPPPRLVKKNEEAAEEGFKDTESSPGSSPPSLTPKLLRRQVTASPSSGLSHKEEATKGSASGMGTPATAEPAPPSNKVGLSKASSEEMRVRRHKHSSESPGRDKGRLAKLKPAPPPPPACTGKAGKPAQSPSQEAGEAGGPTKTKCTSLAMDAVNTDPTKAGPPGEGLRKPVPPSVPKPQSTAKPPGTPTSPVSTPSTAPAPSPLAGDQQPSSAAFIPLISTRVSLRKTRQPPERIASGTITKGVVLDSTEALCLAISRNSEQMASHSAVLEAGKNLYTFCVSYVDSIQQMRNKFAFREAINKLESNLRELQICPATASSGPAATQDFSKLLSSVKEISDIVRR
B1: α-TTP F165D; sequence looked up; chain MAEARSQPSAGPQLNALPDHSPLLQPGLAALRRRAREAGVPLAPLPLTDSFLLRFLRARDFDLDLAWRLLKNYYKWRAECPEISADLHPRSIIGLLKAGYHGVLRSRDPTGSKVLIYRIAHWDPKVFTAYDVFRVSLITSELIVQEVETQRNGIKAIFDLEGWQDSHAFQITPSVAKKIAAVLTDSFPLKVRGIHLINEPVIFHAVFSMIKPFLTEKIKERIHMHGNNYKQSLLQHFPDILPLEYGGEEFSMEDICQEWTNFIMKSEDYLSSISESIQ
B2: α-TTP I202D/M209D; sequence looked up; chain MAEARSQPSAGPQLNALPDHSPLLQPGLAALRRRAREAGVPLAPLPLTDSFLLRFLRARDFDLDLAWRLLKNYYKWRAECPEISADLHPRSIIGLLKAGYHGVLRSRDPTGSKVLIYRIAHWDPKVFTAYDVFRVSLITSELIVQEVETQRNGIKAIFDLEGWQFSHAFQITPSVAKKIAAVLTDSFPLKVRGIHLINEPVDFHAVFSDIKPFLTEKIKERIHMHGNNYKQSLLQHFPDILPLEYGGEEFSMEDICQEWTNFIMKSEDYLSSISESIQ
B3: α-TTP M209D; sequence looked up; chain MAEARSQPSAGPQLNALPDHSPLLQPGLAALRRRAREAGVPLAPLPLTDSFLLRFLRARDFDLDLAWRLLKNYYKWRAECPEISADLHPRSIIGLLKAGYHGVLRSRDPTGSKVLIYRIAHWDPKVFTAYDVFRVSLITSELIVQEVETQRNGIKAIFDLEGWQFSHAFQITPSVAKKIAAVLTDSFPLKVRGIHLINEPVIFHAVFSDIKPFLTEKIKERIHMHGNNYKQSLLQHFPDILPLEYGGEEFSMEDICQEWTNFIMKSEDYLSSISESIQ
B4: α-TTP V206A; sequence looked up; chain MAEARSQPSAGPQLNALPDHSPLLQPGLAALRRRAREAGVPLAPLPLTDSFLLRFLRARDFDLDLAWRLLKNYYKWRAECPEISADLHPRSIIGLLKAGYHGVLRSRDPTGSKVLIYRIAHWDPKVFTAYDVFRVSLITSELIVQEVETQRNGIKAIFDLEGWQFSHAFQITPSVAKKIAAVLTDSFPLKVRGIHLINEPVIFHAAFSMIKPFLTEKIKERIHMHGNNYKQSLLQHFPDILPLEYGGEEFSMEDICQEWTNFIMKSEDYLSSISESIQ
UniProt P33424, sequence (whole entry, looked up): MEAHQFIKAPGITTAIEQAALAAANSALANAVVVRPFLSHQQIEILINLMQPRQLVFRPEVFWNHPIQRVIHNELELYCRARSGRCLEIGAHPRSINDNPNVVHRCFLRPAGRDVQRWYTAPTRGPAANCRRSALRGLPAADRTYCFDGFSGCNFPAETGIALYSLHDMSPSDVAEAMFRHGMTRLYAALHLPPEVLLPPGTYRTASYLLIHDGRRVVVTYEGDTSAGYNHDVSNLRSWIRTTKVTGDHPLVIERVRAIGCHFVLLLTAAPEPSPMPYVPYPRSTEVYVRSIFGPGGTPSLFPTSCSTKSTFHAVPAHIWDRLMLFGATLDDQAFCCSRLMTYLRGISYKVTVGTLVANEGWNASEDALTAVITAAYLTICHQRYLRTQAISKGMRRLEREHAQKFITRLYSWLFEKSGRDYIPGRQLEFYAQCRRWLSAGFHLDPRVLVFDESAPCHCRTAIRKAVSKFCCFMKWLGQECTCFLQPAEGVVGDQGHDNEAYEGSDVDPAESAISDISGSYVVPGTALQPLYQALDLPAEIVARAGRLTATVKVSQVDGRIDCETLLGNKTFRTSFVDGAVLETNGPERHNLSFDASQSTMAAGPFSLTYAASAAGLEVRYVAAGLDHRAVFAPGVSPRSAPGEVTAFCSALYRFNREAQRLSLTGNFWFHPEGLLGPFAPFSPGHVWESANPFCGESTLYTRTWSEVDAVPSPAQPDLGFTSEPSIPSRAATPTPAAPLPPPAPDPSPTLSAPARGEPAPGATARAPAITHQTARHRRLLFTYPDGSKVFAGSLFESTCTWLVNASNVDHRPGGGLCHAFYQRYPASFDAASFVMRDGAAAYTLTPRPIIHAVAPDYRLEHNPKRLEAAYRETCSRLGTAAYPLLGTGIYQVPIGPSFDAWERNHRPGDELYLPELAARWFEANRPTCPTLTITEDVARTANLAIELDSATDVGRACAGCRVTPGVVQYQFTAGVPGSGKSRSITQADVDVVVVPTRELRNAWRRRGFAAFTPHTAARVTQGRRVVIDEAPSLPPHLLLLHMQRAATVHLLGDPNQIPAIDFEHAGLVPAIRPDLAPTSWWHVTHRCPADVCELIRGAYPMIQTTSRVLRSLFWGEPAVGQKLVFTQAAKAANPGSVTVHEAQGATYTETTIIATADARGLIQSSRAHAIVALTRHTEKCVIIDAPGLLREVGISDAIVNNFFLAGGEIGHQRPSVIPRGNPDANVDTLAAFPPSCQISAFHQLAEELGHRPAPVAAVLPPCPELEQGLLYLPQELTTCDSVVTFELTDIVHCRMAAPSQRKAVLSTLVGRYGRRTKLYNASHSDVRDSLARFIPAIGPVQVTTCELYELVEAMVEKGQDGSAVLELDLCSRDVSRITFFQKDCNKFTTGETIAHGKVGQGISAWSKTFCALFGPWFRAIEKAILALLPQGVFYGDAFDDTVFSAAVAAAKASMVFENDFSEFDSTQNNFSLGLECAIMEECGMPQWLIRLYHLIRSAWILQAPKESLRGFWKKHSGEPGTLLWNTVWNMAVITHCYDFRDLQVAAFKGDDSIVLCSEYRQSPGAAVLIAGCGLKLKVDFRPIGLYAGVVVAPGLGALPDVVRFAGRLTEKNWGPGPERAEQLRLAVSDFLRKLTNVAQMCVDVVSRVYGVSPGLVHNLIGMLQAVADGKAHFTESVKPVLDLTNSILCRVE
UniProt Q9Y253, sequence (whole entry, looked up): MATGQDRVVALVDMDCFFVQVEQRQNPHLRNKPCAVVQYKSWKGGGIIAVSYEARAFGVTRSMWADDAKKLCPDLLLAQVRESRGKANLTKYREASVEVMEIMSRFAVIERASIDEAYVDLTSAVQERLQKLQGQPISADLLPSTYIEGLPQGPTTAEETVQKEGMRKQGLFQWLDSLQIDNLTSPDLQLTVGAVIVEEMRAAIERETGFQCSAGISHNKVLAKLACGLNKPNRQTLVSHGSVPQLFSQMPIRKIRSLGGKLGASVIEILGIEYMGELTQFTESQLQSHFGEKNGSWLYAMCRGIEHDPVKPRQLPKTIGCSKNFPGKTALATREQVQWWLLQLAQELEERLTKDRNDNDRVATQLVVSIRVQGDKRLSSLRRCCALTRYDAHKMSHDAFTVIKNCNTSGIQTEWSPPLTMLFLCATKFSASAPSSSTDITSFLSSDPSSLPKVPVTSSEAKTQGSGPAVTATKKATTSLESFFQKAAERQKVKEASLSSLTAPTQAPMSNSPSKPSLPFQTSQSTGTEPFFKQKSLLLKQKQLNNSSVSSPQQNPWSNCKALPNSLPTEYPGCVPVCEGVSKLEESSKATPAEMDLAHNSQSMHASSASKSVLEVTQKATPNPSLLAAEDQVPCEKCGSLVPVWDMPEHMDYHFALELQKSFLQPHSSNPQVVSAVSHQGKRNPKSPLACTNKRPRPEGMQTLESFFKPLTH
UniProt Q96GD4, sequence (whole entry, looked up): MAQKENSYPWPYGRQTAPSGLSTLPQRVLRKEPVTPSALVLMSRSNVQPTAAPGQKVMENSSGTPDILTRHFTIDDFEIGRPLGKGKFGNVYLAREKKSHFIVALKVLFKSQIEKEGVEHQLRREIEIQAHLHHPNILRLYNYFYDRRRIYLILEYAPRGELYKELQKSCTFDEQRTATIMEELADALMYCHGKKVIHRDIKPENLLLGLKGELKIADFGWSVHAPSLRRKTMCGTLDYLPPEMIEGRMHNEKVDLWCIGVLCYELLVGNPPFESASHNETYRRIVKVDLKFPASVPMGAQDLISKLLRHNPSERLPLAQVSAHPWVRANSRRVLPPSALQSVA
UniProt P00760, sequence (whole entry, looked up): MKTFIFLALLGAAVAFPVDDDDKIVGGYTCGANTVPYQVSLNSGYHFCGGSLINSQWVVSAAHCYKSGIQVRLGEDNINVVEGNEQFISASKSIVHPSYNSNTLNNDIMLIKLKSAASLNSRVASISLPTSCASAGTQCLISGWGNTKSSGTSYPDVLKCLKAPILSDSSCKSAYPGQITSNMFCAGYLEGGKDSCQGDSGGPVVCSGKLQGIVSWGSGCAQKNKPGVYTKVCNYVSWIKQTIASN

For `Nc1ncnc2c1ncn2[C@H]1C[C@H](O)[C@@H](COP(=O)(O)OP(=O)(O)OP(=O)(O)O)O1`, the Kd was 7.9 ± 0.8 µM (DNA polymerase eta (POLH, Homo sapiens, UniProt Q9Y253); nucleotide incorporation, substrate; pH 8.0, 37 °C, opposite undamaged dT).
`CCCCCCCC(=O)OC[C@H](COP(=O)(O)O[C@@H]1[C@H](O)[C@H](O)[C@@H](OP(=O)(O)O)[C@H](OP(=O)(O)O)[C@H]1O)OC(=O)CCCCCCC` has a Kd of 4 µM (Pleckstrin homology domain-containing family A member 7 (Homo sapiens, UniProt Q6IQ23); binding, ITC; pH 7.6).
`c1ccc2ccccc2c1` has a Kd of 2.9 µM (CYP2A6; binding, absorbance; pH 7.4).
The Kd of `O=C(NN=Cc1ccc(C[n+]2ccccc2)cc1)c1ccc2ccc3ccc(C(=O)NN=Cc4ccc(C[n+]5ccccc5)cc4)nc3c2n1` is reported as 0.0049 µM (telomeric antiparallel G4 DNA; binding, native ESI-MS; 100 mM trimethylammonium acetate; 1 mM KCl).
`Nc1ncnc2c1nc(SCCNc1ccc([N+](=O)[O-])c3nonc13)n2[C@@H]1O[C@@H]2COP(=O)(O)O[C@H]2[C@H]1O` has a Kd of 0.6 µM (Cyclic nucleotide-gated potassium channel; binding, fluorescence titration; amphipol A8-35; pH 7.4, room temperature).
`B1 (α-TTP F165D)` gave a Kd of 0.017 µM (alpha-tocopherol transfer protein variants; binding, fluorescence titration; with: NBD-Toc).
The Kd of `CC(=O)[C@H]1CC[C@H]2[C@@H]3CCC4=CC(=O)CC[C@]4(C)[C@H]3CC[C@]12C` is reported as 13 ± 3 µM (mouse anti-cortisol Fab 17; native MS titration; 200 mM ammonium acetate; 1.5% DMSO, 0.5% methanol, with: Fab 100 nM).
With `N=C(N)c1ccc(N2CCN(c3ccccc3)CC2)nc1` the Kd was 9.8 µM (Complement C1s subcomponent (Homo sapiens, UniProt P09871); binding, SPR).
`Nc1ncnc2nc[nH]c12` has a Kd of 80 ± 80 µM (MTAP; binding, isothermal titration calorimetry; third site of three sequential).
For `B2 (α-TTP I202D/M209D)`, the Kd was 0.025 µM (alpha-tocopherol transfer protein variants; binding, fluorescence titration; with: NBD-Toc).
For `CCCCCCCCCCCCCCCC(=O)OC[C@H](COP(=O)(O)O[C@H]1[C@H](O)[C@@H](O)[C@H](OP(=O)(O)O)[C@@H](OP(=O)(O)O)[C@H]1O)OC(=O)CCCCCCCCCCCCCCC`, the Kd was 0.5 ± 0.1 µM (Pleckstrin homology domain-containing family A member 7, PH domain (Homo sapiens, UniProt Q6IQ23, D175K); binding, isothermal titration calorimetry; 23 °C, D175K mutant, with: PI in PC lipid nanodiscs).
For `Nc1ncnc2c1ncn2[C@@H]1O[C@H](COP(=O)(O)OP(=O)(O)O)[C@@H](O)[C@H]1O`, the Kd was 19 µM (PMVK (Homo sapiens, UniProt Q15126); binding, NMR; pH 6.5).
The Kd of `c1ccc2c(c1)ccc1ccccc12` is reported as 2.8 µM (CYP2A6; binding, absorbance; pH 7.4).
For `Nc1nc2c(nc(SCCNc3ccc([N+](=O)[O-])c4nonc34)n2[C@@H]2O[C@@H]3COP(=O)(O)O[C@@H]3C2O)c(=O)[nH]1` (stereo partly drawn), the Kd was 2 µM (Cyclic nucleotide-gated potassium channel; binding, fluorescence titration; amphipol A8-35; single titration).
`C[C@]12C[C@H](O)[C@H]3[C@@H](CCC4=CC(=O)CC[C@@]43C)[C@@H]1CC[C@@H]2C(=O)CO` has a Kd of 0.064 ± 0.016 µM (mouse anti-cortisol Fab 17; native MS titration; 200 mM ammonium acetate; 1.5% DMSO, 0.5% methanol, with: Fab 100 nM).
`CCCC(=O)OCC(COP(=O)(O)OC1C(O)C(O)C(OP(=O)(O)O)C(O)C1O)OC(=O)CCC` (stereo not drawn) has a Kd of 700 ± 230 µM (Abl1 SH2 domain; HSQC NMR titration; SH2 domain, no KCl).
`CSC[C@H]1CN(Cc2c[nH]c3c(N)ncnc23)C[C@@H]1O` has a Kd of 0.11 ± 0.0275 µM (MTAP; isothermal titration calorimetry; pH 7.4, 25 °C, apo enzyme, second site set).
`[I-].[K+]` has a Kd of 72900 µM (SLC4A1 (Homo sapiens, UniProt P02730); 36Cl exchange flux, inhibitor, Dixon plot; human red blood cells; pH 12.4 external, 0 °C, internal Cl 295 mM, CAPS buffer).
For `CNc1nc(I)nc2c1ncn2[C@H]1C[C@H](OP(=O)(O)O)[C@]2(COP(=O)(O)O)C[C@H]12` [iodine-125 labelled], the Kd was 0.0012 µM (P2Y purinoceptor 1 (P2ry1, Mus musculus, UniProt P49650); saturation binding; mouse platelets; 37 °C).
The Kd of `CC(C)C[C@H](NC(=O)[C@H](Cc1ccc(O)cc1)NC(=O)[C@H](CC(N)=O)NC(=O)[C@H](CO)NC(=O)CNC(=O)[C@H](Cc1ccc(O)cc1)NC(=O)[C@H](CC(=O)O)NC(=O)CNC(=O)[C@H](Cc1ccc(O)cc1)NC(=O)[C@H](Cc1ccccc1)NC(=O)[C@@H]1CCCN1C(=O)[C@H](Cc1ccccc1)NC(=O)[C@H](CCC(=O)O)NC(=O)[C@H](CCCNC(=N)N)NC(=O)[C@H](Cc1c[nH]cn1)NC(=O)[C@H](CO)NC(=O)[C@H](Cc1c[nH]cn1)NC(=O)[C@H](Cc1c[nH]cn1)NC(=O)[C@H](CCCCN)NC(=O)[C@H](CCC(=O)O)NC(=O)[C@H](Cc1c[nH]cn1)NC(=O)[C@H](Cc1ccccc1)NC(=O)[C@H](CCCCN)NC(=O)[C@H](CCCNC(=N)N)NC(=O)[C@H](CCCNC(=N)N)NC(=O)[C@H](Cc1ccc(O)cc1)NC(=O)CNC(=O)[C@H](Cc1c[nH]cn1)NC(=O)[C@H](Cc1c[nH]cn1)NC(=O)[C@H](CCCNC(=N)N)NC(=O)[C@H](CCCCN)NC(=O)[C@H](CCC(=O)O)NC(=O)[C@H](Cc1c[nH]cn1)NC(=O)[C@H](COP(=O)(O)O)NC(=O)[C@@H](N)CC(=O)O)C(=O)N[C@@H](Cc1ccc(O)cc1)C(=O)N[C@@H](CC(=O)O)C(=O)N[C@@H](CC(N)=O)C(=O)O` is reported as 6.3 µM (Sigma intracellular receptor 2 (TMEM97, Homo sapiens, UniProt Q5BJF2); binding, SPR; pH 7.4).
The Kd of `O=C(N[C@H](Cn1ccnc1)c1ccc(Cl)cc1Cl)c1ccc(-c2nnc(-c3ccccc3)o2)cc1` (single isomer, unassigned) is reported as 0.12 µM (Sterol 14-alpha demethylase (CYP51, Trypanosoma cruzi, UniProt Q7Z1V1); binding, absorbance).
`CC(C)OC(=O)[C@H](C)N[P@](=O)(OC[C@H]1O[C@@H](n2ccc(=O)[nH]c2=O)[C@](C)(F)[C@@H]1O)Oc1ccccc1` has a Kd of 0.015 µM and ~0.015 µM (Non-structural polyprotein pORF1, RNA-dependent RNA polymerase (Hepatitis E virus genotype 1, UniProt P33424); binding, microscale thermophoresis).
For `B3 (α-TTP M209D)`, the Kd was 0.012 µM (alpha-tocopherol transfer protein variants; binding, fluorescence titration; with: NBD-Toc).
With `CCCC(=O)OCC(COP(=O)(O)OC1C(O)C(O)C(OP(=O)(O)O)C(OP(=O)(O)O)C1O)OC(=O)CCC` (stereo not drawn) the Kd was 260 ± 22 µM (Abl1 SH2 domain; HSQC NMR titration; SH2 domain, no KCl).
`Nc1ncnc2c1ncn2[C@@H]1O[C@H](COP(=O)(O)OP(=O)(O)OP(=O)(O)O)[C@@H](O)[C@H]1O` has a Kd of 31 µM (Aurora kinase B (AURKB, Homo sapiens, UniProt Q96GD4)).
`B4 (α-TTP V206A)` has a Kd of 0.023 µM (alpha-tocopherol transfer protein variants; binding, fluorescence titration; with: NBD-Toc).
For `NCc1cccc(N2CCCC2)c1`, the Kd was 181 µM (Serine protease 1 (PRSS1, Bos taurus, UniProt P00760); binding, ITC; pH 8).

Repeated from above:
`C[C@]12C[C@H](O)[C@H]3[C@@H](CCC4=CC(=O)CC[C@@]43C)[C@@H]1CC[C@@H]2C(=O)CO` has a Kd of 0.064 ± 0.016 µM (mouse anti-cortisol Fab 17; native MS titration; 200 mM ammonium acetate; 1.5% DMSO, 0.5% methanol, with: Fab 100 nM).
`CCCC(=O)OCC(COP(=O)(O)OC1C(O)C(O)C(OP(=O)(O)O)C(O)C1O)OC(=O)CCC` (stereo not drawn) has a Kd of 700 ± 230 µM (Abl1 SH2 domain; HSQC NMR titration; SH2 domain, no KCl).
`CSC[C@H]1CN(Cc2c[nH]c3c(N)ncnc23)C[C@@H]1O` has a Kd of 0.11 ± 0.0275 µM (MTAP; isothermal titration calorimetry; pH 7.4, 25 °C, apo enzyme, second site set).
`[I-].[K+]` has a Kd of 72900 µM (SLC4A1 (Homo sapiens, UniProt P02730); 36Cl exchange flux, inhibitor, Dixon plot; human red blood cells; pH 12.4 external, 0 °C, internal Cl 295 mM, CAPS buffer).
For `CNc1nc(I)nc2c1ncn2[C@H]1C[C@H](OP(=O)(O)O)[C@]2(COP(=O)(O)O)C[C@H]12` [iodine-125 labelled], the Kd was 0.0012 µM (P2Y purinoceptor 1 (P2ry1, Mus musculus, UniProt P49650); saturation binding; mouse platelets; 37 °C).
